Assay results gathered from unrelated publications.
Protocols differ between the studies behind these lines. “And” joins repeats or separate records; there may be more than shown. ± gives the spread as reported.

SMILES | tested on | test | test system | conditions | how to read | endpoint | result
Nc1ncc(-c2nc(N3CCOCC3)nc(N3CCOCC3)n2)c(C(F)F)n1 | BT-20 |  |  | 72 h |  | GI50 | 0.042 µM
COc1c(CCC[P+](c2ccccc2)(c2ccccc2)c2ccccc2)cc2c(c1OC)OCO2.[I-] | NCI60 panel | SRB |  |  |  | mean Log10LC50 | -4.14 log M
Cn1cc2cc(C(F)(F)c3nnc4ccc(-c5cnn(C6CC6)c5)nn34)c(F)cc2n1 | MKN-45 | annexin V/PI flow cytometry |  | 2 nM, 48 h |  | early apoptotic cells | 5.14% and 5.06% and 5.64%
COc1ccc(OC)c(N2C(=O)NC(=O)/C(=C\c3ccc([N+](=O)[O-])s3)C2=O)c1 | C127 LDR GFP reporter cells | silenced GFP reporter induction, activator, high-content imaging |  | independent samples, two-run mean |  | maximum efficacy | 20%
Cc1nn(-c2nc3c(F)cc(F)cc3s2)c(O)c1C(c1ccc(C(F)(F)F)cc1)c1c(C)nn(-c2nc3c(F)cc(F)cc3s2)c1O | RAW-ISG | CCK-8 |  | 25 µM |  | viability | 103% and 102% and 82.1% and 85.7% and 88.9%
CC(C)N1CCC(NC2CCN(c3cccc(-c4cc5cc(F)ccc5[nH]4)c3)CC2)CC1 | IGROV-1 |  |  |  |  | GI50 | 1.85 µM
COc1cc([C@@H]2c3cc4c(cc3[C@@H](O[C@@H]3O[C@@H]5CO[C@@H](C)O[C@H]5[C@H](O)[C@H]3O)[C@H]3COC(=O)[C@H]23)OCO4)cc(OC)c1O | HCT-116, Caco-2 over CCD-18Co | cytotoxicity, MTS |  | 72 h | baseline: cancer over non-cancerous cells | selectivity ratio | ~2.5
Nc1ncnc2c1ncn2[C@@H]1O[C@@H]2COP(=O)(O)O[C@H]3[C@@H](O)[C@H](n4cnc5c(=O)[nH]cnc54)O[C@@H]3COP(=O)(O)O[C@H]2[C@H]1O | HFF-1 | RNA sequencing Reactome analysis, item: Reactome R-HSA-449147 signaling by interleukins |  | with: West Nile virus infection | baseline: West Nile virus infected cells, upregulated pathway | pathway fold enrichment | 2.53
O=S(=O)(Nc1ccc(-c2nc3cc(NS(=O)(=O)c4ccc(F)cc4)ccc3o2)cc1)c1ccc(F)cc1 | DLD-1 colorectal cancer |  |  | 48 h |  | EC50 | 15 to 18 µM
C[C@@H]1O[C@@H](O[C@H]2C[C@@H](O)[C@]3(CO)[C@H]4[C@H](O)C[C@]5(C)[C@@H](C6=CC(=O)OC6)CC[C@]5(O)[C@@H]4CC[C@]3(O)C2)[C@H](O)[C@H](O)[C@H]1O | iPSC-derived cardiomyocytes | concentration-response fit |  | concentration not given | baseline: vehicle | fitted bottom MyBP-C level | 21.3%
CC(c1ccccc1)(c1ccc(O)cc1)c1ccc(O)cc1 | HepG2 spheroids | Hoechst flow cytometry |  | 40 µM, 24 h |  | S phase cells | 6.21 ± 0.79%
COc1cc(CCC[P+](c2ccccc2)(c2ccccc2)c2ccccc2)c(OC)c2c1OCO2.[I-] | SR | SRB |  |  |  | TGI | -4.87 log M
CC1=C(O)C(=O)C=C2C1=CC=C1[C@@]2(C)CC[C@@]2(C)[C@@H]3C[C@](C)(C(=O)O)CC[C@]3(C)CC[C@]12C | iPSC-derived cardiomyocytes | concentration-response curve, item: MyBP-C/MYH ratio |  | 24 h |  | EC50 | 7 µM
C[C@@]1(C(=O)O)CC[C@]2(C)CC[C@]3(C)C4=CC(=O)c5c(cc(O)c(O)c5C=O)[C@]4(C)CC[C@@]3(C)[C@@H]2C1 | BT-12 | cell viability, MTT |  | 10 µM, 72 h |  | inhibition | 92.5%
Oc1ccc(C(c2ccc(O)cc2)(C(F)(F)F)C(F)(F)F)cc1 | HepG2 spheroids | Hoechst flow cytometry |  | 0.01 µM, 96 h |  | G2 phase cells | 20.2 ± 2.31%
CC1=CC(=O)c2c(O)cccc2C1=O | HuCC-A1 | MTT |  |  | baseline: IC50 MRC-5 over IC50 HuCC-A1 | selectivity index | 0.46
O=S(=O)(c1ccc(O)cc1)c1ccc(O)cc1 | HepG2 spheroids | Hoechst flow cytometry |  | 0.01 µM, 96 h |  | S phase cells | 11.8 ± 3.27%
CC(C)[C@H](N)C(=O)N1CCC[C@H]1B(O)O | Ker-CT keratinocytes, GSDMD/GSDME double knockout | inducer, ELISA |  | concentration not given |  | IL-1β release | 12.7 pg/mL and 22.6 pg/mL and 11.6 pg/mL
C[C@]12CC[C@H](O)C[C@H]1CC[C@@H]1[C@@H]2CC[C@]2(C)[C@@H](C3=CC(=O)OC3)[C@@H](O)C[C@]12O | iPSC-derived cardiomyocytes | concentration-response fit |  | concentration not given | baseline: vehicle | fitted bottom MyBP-C level | 0%
COc1ccc2c(c1)[nH]c1c(C)nccc12 | DU-145 | bisulfite pyrosequencing, item: RASSF1A promoter CpG site 30 |  | concentration not given | baseline: vehicle | methylation reduction | 0.55%

SMILES | tested on | test | test system | conditions | how to read | endpoint | result
Cn1nccc1Nc1nccc(-c2cc3c(s2)C(C)(C)N(CCN2CCOCC2)C3=O)n1 | HCT116 | IncuCyte |  | concentration not given, 36 (unit not given) |  | PI-positive cells | 18.7 count and 17.1 count and 12.4 count
CCN(CC)c1ccc(C=NNC(=O)CSc2nc3ccccc3c(=O)n2Cc2ccc(S(N)(=O)=O)cc2)c(O)c1 | NCI-H226 | NCI five-dose screen |  |  |  | CC50 | > 100 µM
COC(=O)/C(C)=C\C[C@@]12OC(C)(C)[C@@H]3C[C@@H](C=C4C(=O)c5c(O)c6c(c(CC=C(C)C)c5O[C@]431)O[C@](C)(CCC=C(C)C)C=C6)C2=O | iPSC-derived cardiomyocytes | concentration-response fit |  |  | baseline: vehicle | fitted bottom MyBP-C/MYH ratio | 0%
COc1ccccc1N1CCN(CCN(C(=O)C2CCCCC2)c2ccccn2)CC1 | Plasmodium falciparum |  | 7G8 |  |  | IC50 | 2 µM
CO[C@H]1/C=C\C=C(/C)C(=O)NC2=CC(=O)C(NCCN(C)C)=C(C[C@@H](C)C[C@H](OC)[C@H](O)[C@@H](C)/C=C(\C)[C@@H]1OC(N)=O)C2=O | iPSC-derived cardiomyocytes | concentration-response curve, item: MyBP-C protein level |  | 24 h |  | EC50 | 4.3 µM
COc1ccc([C@H]2c3[nH]c4ccc(Cl)cc4c3CCN2C(=O)Oc2ccc(Cl)cc2)cc1 | human dermal fibroblasts with PBMC | cytokine secretion, item: sIL-6 |  | 0.1 µM, 48 h |  | inhibition | 96%
Cc1ccc2c(c1)C(=O)C1(O)CCN(c3ccccc3)C1=N2 (stereo not drawn) | A2058 | cell motility, Boyden chamber |  | with: autotaxin 50 nM |  | EC50 | 54 µM
Oc1cc(Cl)ccc1Oc1ccc(Cl)cc1Cl | HepG2 | high content imaging, item: DNA structure |  | 24 h, representative mode |  | point of departure | 17 µM
CN1CCN(C2(CNC3CCN(c4cccc(-c5cc6cc(F)ccc6[nH]5)c4)CC3)CCC2)CC1 | SK-OV-3 |  |  |  |  | CC50 | 6.2 µM
C/C=C(/C)C(=O)O[C@H]1C(C)=C2[C@H]([C@@H]1OC(=O)CCCCCCC)[C@@](C)(OC(C)=O)C[C@H](OC(=O)CCC)[C@@]1(O)[C@H]2OC(=O)[C@@]1(C)O | HEK-293T | RNA-seq GSEA, item: Hallmark apical surface |  | 500 nM, 6 h | direction not given | normalized enrichment score | -1.3
CC[C@H](C)[C@@H]([C@@H](CC(=O)N1CCC[C@H]1[C@H](OC)[C@@H](C)C(=O)N[C@@H](Cc1ccccc1)C(=O)O)OC)N(C)C(=O)[C@@H](NC(=O)[C@H](C(C)C)N(C)C(=O)CCSSC[C@H](NC(=O)[C@@H](NC(=O)CNC(=O)[C@H](CCC(=O)O)NC(=O)[C@H](CC(=O)O)NC(=O)[C@H](C)NC(=O)[C@H](CC(=O)O)NC(=O)[C@@H](NC(=O)[C@H](CC(C)C)NC(=O)[C@H](CC(C)C)NC(=O)[C@H](C)NC(=O)[C@H](CC(C)C)NC(=O)[C@H](CC(=O)O)NC(=O)[C@H](CC(C)C)NC(=O)[C@H](CC(C)C)NC(=O)[C@H](CC(C)C)NC(=O)[C@H](CC(C)C)NC(=O)[C@@H]1CCCN1C(=O)[C@@H](NC(=O)[C@@H](NC(=O)[C@H](Cc1ccccc1)NC(=O)[C@H](CC(C)C)NC(=O)[C@H](Cc1c[nH]c2ccccc12)NC(=O)[C@H](CC(=O)O)NC(=O)[C@H](C)NC(=O)[C@H](Cc1ccc(O)cc1)NC(=O)[C@H](CCCNC(=N)N)NC(=O)[C@H](C)NC(=O)[C@H](Cc1c[nH]c2ccccc12)NC(=O)[C@H](Cc1ccc(O)cc1)NC(=O)[C@@H](NC(=O)[C@@H]1CCCN1C(=O)[C@H](CC(N)=O)NC(=O)[C@H](CCC(N)=O)NC(=O)[C@H](CCC(=O)O)NC(=O)[C@H](C)NC(=O)[C@H](C)N)[C@@H](C)CC)[C@@H](C)O)[C@@H](C)O)C(C)C)[C@@H](C)O)C(=O)NCC(N)=O)C(C)C | HeLa | MTT |  | 40 nM, 72 h, 2 h low pH treatment |  | cell killing | 80%
O=C1N(Cc2ccccc2Cl)c2ccccc2C12NN=C(c1ccccc1)S2 (stereo not drawn) | MDA-MB-468 | gene expression array, item: KCTD3 mRNA |  | 10 µM, 12 h | baseline: untreated, down | fold change | 1.51
N=C(N)NC(=O)Cc1c(Cl)cccc1Cl | Plasmodium falciparum |  | 3D7 |  |  | IC50 | 3.16 µM
N.N.[Cl][Pt][Cl] | Vero | MTT |  | 100 µM, 48 h |  | growth reduction | 12.1 ± 1.04%
Cn1nccc1Nc1nccc(-c2ccn([C@H](CO)c3ccc(Cl)c(F)c3)c(=O)c2)n1 | HCT116 | IncuCyte |  | concentration not given, 44 (unit not given) |  | PI-positive cells | 16.5 count and 11.9 count and 18.7 count
N#Cc1c(N)nc(SCC(N)=O)c(C#N)c1-c1ccc(OCC2CC2)cc1 | H9c2 | agonist |  | concentration not given, 5 min |  | ERK1/2 activation | 16 % above basal
COc1c(C)c2c(c(O)c1C/C=C(\C)CCC(=O)O)C(=O)OC2 | IGROV-1 | cell proliferation |  |  |  | IC50 | 0.562 µM
Cc1cnc2ccc3c(nc(N)n3C)c2n1 | BALB/c 3T3 | colony forming efficiency |  | 5 µM |  | colony number | 86 colonies per plate and 101 colonies per plate and 91 colonies per plate
C[C@]12CC[C@H](O)C[C@H]1CC[C@@H]1[C@@H]2CC[C@]2(C)[C@@H](c3ccc(=O)oc3)CC[C@]12O | MCF7 | RT-qPCR, item: PGR |  | 50 nM, 48 h, without estradiol, unit not given | baseline: untreated | mRNA level | 0.229 and 0.14 and 0.25

Some of these lines once more:
SMILES | tested on | test | test system | conditions | how to read | endpoint | result
COc1c(C)c2c(c(O)c1C/C=C(\C)CCC(=O)O)C(=O)OC2 | IGROV-1 | cell proliferation |  |  |  | IC50 | 0.562 µM
Cc1cnc2ccc3c(nc(N)n3C)c2n1 | BALB/c 3T3 | colony forming efficiency |  | 5 µM |  | colony number | 86 colonies per plate and 101 colonies per plate and 91 colonies per plate
C[C@]12CC[C@H](O)C[C@H]1CC[C@@H]1[C@@H]2CC[C@]2(C)[C@@H](c3ccc(=O)oc3)CC[C@]12O | MCF7 | RT-qPCR, item: PGR |  | 50 nM, 48 h, without estradiol, unit not given | baseline: untreated | mRNA level | 0.229 and 0.14 and 0.25
